{"sequences": {"note": "Amino acid sequences for entries named in this document (tags omitted).", "UniProt P28566, whole entry": "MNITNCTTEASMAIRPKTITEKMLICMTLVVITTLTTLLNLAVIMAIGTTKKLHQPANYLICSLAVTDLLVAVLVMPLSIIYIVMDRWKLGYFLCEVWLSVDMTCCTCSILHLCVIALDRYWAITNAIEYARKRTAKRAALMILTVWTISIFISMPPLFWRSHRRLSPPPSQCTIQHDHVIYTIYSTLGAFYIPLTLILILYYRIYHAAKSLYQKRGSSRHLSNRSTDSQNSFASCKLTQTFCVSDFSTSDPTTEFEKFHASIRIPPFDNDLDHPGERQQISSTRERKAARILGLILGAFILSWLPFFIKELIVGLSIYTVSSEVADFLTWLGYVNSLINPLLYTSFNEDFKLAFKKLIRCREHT", "UniProt Q99683, whole entry": "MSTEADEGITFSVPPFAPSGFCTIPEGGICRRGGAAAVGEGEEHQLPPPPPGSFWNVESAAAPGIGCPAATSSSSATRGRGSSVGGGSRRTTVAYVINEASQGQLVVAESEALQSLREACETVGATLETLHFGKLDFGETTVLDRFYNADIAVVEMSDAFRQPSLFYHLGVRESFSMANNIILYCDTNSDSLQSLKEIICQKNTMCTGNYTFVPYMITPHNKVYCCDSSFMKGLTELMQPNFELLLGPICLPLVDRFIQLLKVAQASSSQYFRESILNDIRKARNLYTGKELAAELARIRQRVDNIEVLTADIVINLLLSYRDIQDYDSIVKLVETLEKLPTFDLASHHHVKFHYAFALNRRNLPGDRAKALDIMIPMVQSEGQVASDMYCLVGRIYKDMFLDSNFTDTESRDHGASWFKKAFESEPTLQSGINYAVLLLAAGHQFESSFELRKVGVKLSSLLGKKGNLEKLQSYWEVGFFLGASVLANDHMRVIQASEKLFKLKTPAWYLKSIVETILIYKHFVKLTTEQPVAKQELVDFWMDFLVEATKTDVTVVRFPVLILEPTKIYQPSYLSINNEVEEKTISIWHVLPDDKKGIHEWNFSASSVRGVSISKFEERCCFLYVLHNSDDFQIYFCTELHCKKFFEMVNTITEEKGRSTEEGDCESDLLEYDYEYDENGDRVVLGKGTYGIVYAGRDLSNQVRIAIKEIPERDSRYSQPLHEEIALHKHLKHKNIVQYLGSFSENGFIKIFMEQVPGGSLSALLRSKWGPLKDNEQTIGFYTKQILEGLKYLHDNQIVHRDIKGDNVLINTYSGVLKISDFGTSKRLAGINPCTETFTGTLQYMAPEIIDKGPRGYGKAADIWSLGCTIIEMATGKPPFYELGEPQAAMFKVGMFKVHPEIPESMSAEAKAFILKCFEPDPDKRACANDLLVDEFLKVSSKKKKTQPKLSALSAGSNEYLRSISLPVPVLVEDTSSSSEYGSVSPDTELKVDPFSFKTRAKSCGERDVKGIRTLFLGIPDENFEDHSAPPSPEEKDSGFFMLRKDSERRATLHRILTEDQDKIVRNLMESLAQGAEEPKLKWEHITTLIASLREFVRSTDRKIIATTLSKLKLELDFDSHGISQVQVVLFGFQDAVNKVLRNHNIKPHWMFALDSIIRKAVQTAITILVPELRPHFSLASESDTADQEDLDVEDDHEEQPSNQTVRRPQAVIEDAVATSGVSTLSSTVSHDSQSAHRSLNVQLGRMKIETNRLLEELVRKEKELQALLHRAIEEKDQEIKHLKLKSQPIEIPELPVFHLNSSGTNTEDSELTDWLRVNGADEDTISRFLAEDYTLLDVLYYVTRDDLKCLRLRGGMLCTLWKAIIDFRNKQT"}, "data": "Measured values gathered from unrelated publications", "note": "Each line is one published result; not all experiments were run side by side. ± gives the spread as reported."}
{"Molecule": "CCCN1CCN(c2ccc3c(c2)C2CC3CCN2C(=O)OCc2ccccc2)CC1 (stereo not shown)", "tested on": "5-hydroxytryptamine receptor 1E (HTR1E, Homo sapiens, UniProt P28566)", "test": "binding, radioligand binding", "measurement": "Ki", "result": "7.74 µM"}
{"Molecule": "Cc1cc(N(CCCl)CCCl)ccc1C=O", "tested on": "A498", "test": "cell growth, inhibitor, MTT", "measurement": "IC50", "result": "0.0677 mg/L"}
{"Molecule": "Cc1ccc(-c2csc(N(CC3OC(n4c[n+](Cc5ccccc5)c5c(=O)[nH]c(NC(=O)c6ccccc6)nc54)C4OC(C)(C)OC34)P(=O)([O-])O)n2)cc1 (stereo not shown)", "tested on": "MCF7", "test": "cell growth, SRB", "measurement": "IC50", "result": "> 100 µM"}
{"Molecule": "fluorouracil", "tested on": "DLD-1", "test": "cell viability, MTS", "measurement": "IC50", "result": "> 50 µM"}
{"Molecule": "CCN1CCN(Cc2ccc(NC(=O)c3ccc(C)c(/C=C/c4cnc5[nH]ccc5c4OC)c3)cc2C(F)(F)F)CC1", "tested on": "PRKAR1A-RET fusion", "test": "kinase-CDC37 interaction, cell-based kinome screen", "conditions": "5 µM", "scale": "reference: vehicle", "measurement": "log2 fold change", "result": -1.13}
{"Molecule": "C(CCCCCN1COOC2(CCCCCC2)OOC2(CCCCCC2)OOC1)CCCCN1COOC2(CCCCCC2)OOC2(CCCCCC2)OOC1", "tested on": "K562", "test": "cytotoxicity, 7-AAD flow cytometry", "measurement": "IC50", "result": "1.74 ± 0.11 µM"}
{"Molecule": "COc1cc(S(=O)(=O)F)cc(OC)c1OC", "tested on": "NCI-H460", "test": "cell viability, CellTiter-Glo", "conditions": "72 h", "measurement": "IC50", "result": "> 1.5 µM"}
{"Molecule": "cisplatin", "tested on": "compound-resistant NIH:OVCAR-3", "test": "cell viability, MTT", "conditions": "72 h", "measurement": "IC50", "result": "2.5 ± 1 µM"}
{"Molecule": "CSc1nc(Cl)cc(Sc2nnc(-c3cc(C(F)(F)F)cc(C(F)(F)F)c3)[nH]2)n1", "tested on": "Escherichia coli", "system": "MC4100", "conditions": "37 °C, without PMBN", "measurement": "MIC", "result": "> 590 mg/L"}
{"Molecule": "C1CCC2(C1)OOCOCOOC1(CCCC1)OO2", "tested on": "K562", "test": "cytotoxicity, 7-AAD flow cytometry", "measurement": "IC50", "result": "6.04 ± 0.18 µM"}
{"Molecule": "CC#C/C(=N\\OC[C@H]1COCCN1)c1ccc2ncnc(Nc3ccc(OCc4cccc(F)c4)c(Cl)c3)c2c1", "tested on": "Mitogen-activated protein kinase kinase kinase 5 (MAP3K5, Homo sapiens, UniProt Q99683)", "test": "kinase activity", "conditions": "10 µM", "measurement": "inhibition", "result": "18.7%"}
{"Molecule": "CC1CCC2(CC1)OOCOCOOC1(CCC(C)CC1)OO2 (stereo not shown)", "tested on": "HEK293", "test": "cytotoxicity, 7-AAD flow cytometry", "measurement": "IC50", "result": "14.3 ± 0.54 µM"}
{"Molecule": "Cc1cc(N(CCCl)CCCl)ccc1C(=O)O", "tested on": "CAKI-1", "test": "cell growth, inhibitor, MTT", "measurement": "IC50", "result": "6.6 mg/L"}
{"note": "Repeated from above:"}
{"Molecule": "C(CCCCCN1COOC2(CCCCCC2)OOC2(CCCCCC2)OOC1)CCCCN1COOC2(CCCCCC2)OOC2(CCCCCC2)OOC1", "tested on": "K562", "test": "cytotoxicity, 7-AAD flow cytometry", "measurement": "IC50", "result": "1.74 ± 0.11 µM"}
{"Molecule": "COc1cc(S(=O)(=O)F)cc(OC)c1OC", "tested on": "NCI-H460", "test": "cell viability, CellTiter-Glo", "conditions": "72 h", "measurement": "IC50", "result": "> 1.5 µM"}
